# Experimental data from different studies.
# Compare with care: the assays were run in different laboratories. ± gives the spread as reported.
SMILES,test system,conditions,AUC(0-t)
CSc1cc(C)nc(SC)c1NC(=O)CN1CCN(CCSc2nc3ccccc3[nH]2)CC1.Cl,"CD-1 mouse, female, plasma","intranasal, 32.4 µg/10 µL, 7 days repeated",49.8 ± 6.58 ng·h/mL
CCCCC1(CCCC)CN(c2ccccc2)c2cc(SC)c(OCC(=O)N[C@@H](C(=O)NCC(=O)O)c3ccccc3)cc2S(=O)(=O)C1,"human, plasma","oral, 20 mg, no breakfast",12.8 ng·h/mL
CNc1nc(Nc2ccc(-n3cnc(C)n3)c(OC)c2)nc2c1CC[C@H]2c1ccc(F)cc1,"human, plasma","oral, 200 mg, multiple doses, once daily",31400 ng·h/mL
C#Cc1cccc(Nc2ncnc3cc(OCCOC)c(OCCOC)cc23)c1,"NOD/SCID mouse, male, whole blood or plasma","oral, 12.5 mg/kg every 12 h, 12 h, day 1",27000 ± 2570 ng·h/mL
CNCc1ccc(-c2[nH]c3cc(F)cc4c3c2CCNC4=O)cc1,"human patients, plasma","oral, 300 mg once daily, day 15, 24 h, steady state, arithmetic mean",9610 ng·h/mL
C#C[C@]1(CO)O[C@@H](n2cnc3c(N)nc(F)nc32)C[C@@H]1O,"human, plasma","oral, 200 mg, single dose, fasted",24.1 µM·h
CCCOc1ccc([C@H]2CNC(=O)N2c2ccc3[nH]cnc3c2)cc1,"human, plasma","oral, 800 mg, single dose, fasted, healthy volunteers",8550 ng·h/mL
CCCC[C@H](NC(C)=O)C(=O)N[C@H]1CCC(=O)NC[C@@H](C(=O)N[C@@H](Cc2c[nH]c3ccccc23)C(N)=O)NC(=O)[C@H](CCCNC(=N)N)NC(=O)[C@@H](Cc2ccccc2)NC(=O)[C@H](Cc2c[nH]cn2)NC1=O,"CD Sprague-Dawley rat, female, plasma","subcutaneous, 25.0 mg/kg/day, day 1",4920 ng·h/mL

# Some of these lines once more:
SMILES,test system,conditions,AUC(0-t)
CCCCC1(CCCC)CN(c2ccccc2)c2cc(SC)c(OCC(=O)N[C@@H](C(=O)NCC(=O)O)c3ccccc3)cc2S(=O)(=O)C1,"human, plasma","oral, 20 mg, no breakfast",12.8 ng·h/mL
